Measured values pooled from the literature.
Parts stem from different laboratories: compare values within a part only. Positions count from the first letter of the parent shown.

Sample 1 — method: protein binding microarray; molecule type: double-stranded DNA, one strand shown; medium: in vitro; tested at: not given; baseline: not given; direction: higher = stronger binding; quantity: E-score
Target: Histone acetyltransferase KAT6A, winged helix 2, GST fusion (KAT6A, Homo sapiens, UniProt Q92794, residues 85-181)
Setting: 8-mer, flanks averaged, mean of 2 arrays, mostly near background
Residues (chain): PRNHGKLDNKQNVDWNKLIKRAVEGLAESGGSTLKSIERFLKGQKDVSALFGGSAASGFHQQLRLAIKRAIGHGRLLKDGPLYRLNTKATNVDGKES
GGGGTGAA: 0.0134
CGTGATTC: -0.114
CAGTGACG: 0.0589
ACAACCCT: 0.117
CCTAACAC: 0.0795
GCACTACA: -0.0584
TCTACGCA: 0.0482

Sample 2 — method: RNA Bind-n-Seq; molecule type: RNA; medium: in vitro; tested at: not given; setting: RNA with constant flanks, ends assumed; baseline: input RNA pool; direction: higher = stronger binding; quantity: bound/input enrichment
Target: RING finger protein unkempt homolog, zinc fingers 1-6, GST-SBP tag (UNK, Homo sapiens, UniProt Q9C0B0, residues 30-357)
Sequence of UniProt Q9C0B0 (30-357, looked up): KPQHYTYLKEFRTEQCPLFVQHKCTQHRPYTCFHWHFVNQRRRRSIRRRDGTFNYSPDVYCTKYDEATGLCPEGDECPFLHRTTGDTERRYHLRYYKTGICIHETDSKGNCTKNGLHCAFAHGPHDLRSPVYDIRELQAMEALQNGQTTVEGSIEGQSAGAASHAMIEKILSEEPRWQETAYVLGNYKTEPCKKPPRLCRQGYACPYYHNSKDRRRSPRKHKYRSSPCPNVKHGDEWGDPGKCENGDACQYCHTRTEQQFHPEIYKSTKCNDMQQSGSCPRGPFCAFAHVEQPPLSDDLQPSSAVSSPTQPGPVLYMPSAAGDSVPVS
Shared flanks, not repeated: GGGAGUUCUACAGUCCGACGAUC … CAACAGAGGAUUGAGCAUCA
AAACCCCAGGCUGUUUCUUCAUUAAACUCUAGUCAUUCCAGGUCUCAUGGGAAUGAUCACCACCGCAAGGAACAUCAACGCUCCAAAUCACCUCGGGACCCUGAUGCAAACUGGGAUUCU: 0.199 ratio
GAACUGGUGGAAGCUAUGUAUGGCAAACUCAGCAACCAGGAAAGGAUCACACUGUCCGACACCGUGACCGCCAAGCUAGUGGGUGAGGAGCAGCUGACAAAGGAUGACAUCUCUAUCUUU: 0.11 ratio
GUGGUUCUGGUCACCGUCGCUGCCAUUGUUAGAAAGAUUUUUAAUGAUAUGCGGGGUGUCGCCGCUAAACAACGGACACAUACAAGAAAACAACAAUUUGAACAUGGAGAGUUGGUUUAC: 2.54 ratio
UCAGUCUAAGUCACAAAAAUAUCCAGUUUAACAUAAAGCUGUCUGUGCAAAGAAUAGGUGACCGACUGCUAUUUUAACCAGGCUGAAAAGAAAAACAGAUGCAAGUGUCCCCUUUCAUGG: 0.13 ratio
UUUGCAAAUUAUAUUGCCAGAGACACACGUCGUCUUGGUGCAACAAUACUAGACCGUAUACACCGUCUUCAAAUUAAUAGCAGUUUGAGCACCUACUCUCUCGUAGACUCUGUUGGAAAU: 0.627 ratio
UUGGAAGUGUAUCCUCCCUUCUUAUUUUUUCUAGCUGUUGGAGGUGUUUACCACCCGCGUACCGCUUCUGGCCUGGGCUUGGCCUGGAUUGUUGGACGAGUUCUUUAUGCUUAUGGCUAU: 0.615 ratio

Sample 3 — target: CCND2, cyclin fold, Cln2 fusion (human); method: yeast growth competition, sequencing; medium: yeast; setting: weak parent motif; baseline: not given; direction: higher = stronger binding; quantity: normalised enrichment score
Starting sequence: BRCA2 docking peptide (human); PSIKRNLLNEFDR; partner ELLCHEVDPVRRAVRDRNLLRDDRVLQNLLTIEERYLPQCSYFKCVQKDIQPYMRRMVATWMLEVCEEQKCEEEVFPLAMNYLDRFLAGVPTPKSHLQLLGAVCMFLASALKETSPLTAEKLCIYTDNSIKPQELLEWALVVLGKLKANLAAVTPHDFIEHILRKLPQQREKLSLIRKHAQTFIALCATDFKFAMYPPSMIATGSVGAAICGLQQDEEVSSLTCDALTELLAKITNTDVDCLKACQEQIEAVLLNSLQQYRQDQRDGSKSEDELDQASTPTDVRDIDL
PSIKRNLLNEFRR [D12R]: 0.415
PSIKRNLLCEFDR [N9C]: 0.187
PSIKINLLNEFDR [R5I]: 0.0883
PSIKRTLLNEFDR [N6T]: -0.13

Mixed results
PhoQ, residues 284 288 289 292 302 303 TYGVAM — fold induction (PhoP, residues 12 14 15 18 19 NIMAP (Escherichia coli, UniProt P23836); Sort-seq, item: YFP reporter; E. coli; PhoQ-PhoP variant library, added: 10 µM Mg2+; baseline: high Mg2+ state, higher = stronger signaling): 1.09
